Results of several laboratories.
Each line is one published result; not all experiments were run side by side. ± gives the spread as reported.
Cell line: NCI-H460

| Compound | assay | test system | conditions | IC50 |
| --- | --- | --- | --- | --- |
| Fc1ccccc1/C=C/c1nc2ccccc2nc1N1CCOCC1 | cell growth or viability, MTT | – | 72 h | 19.5 µM |
| COCC12CN(C)C3C4C(OC)C1C3(C(OC)CC2O)C1(O)CC2(O)C(OC)C(O)C4(O)C1C2OC(=O)c1ccccc1 (stereo not shown) | cell growth or viability, MTT | – | – | 13.5 µM |
| Cc1ccc(C(=O)C2Sc3nnc(-n4nc(C)cc4C)n3NC2c2ccc(Cl)cc2)cc1 (racemic) | cell growth or viability, imaging | – | 72 h | > 100 µM |
| Cc1ccc2nc(Cl)c(-c3nc4cc(Cl)ccc4[nH]3)cc2c1 | cell growth or viability, MTT | – | 48 h | > 100 µM |
| [NH2][Pt]1([NH2])([Cl])([O]C(=O)C(F)(F)F)[O]C(=O)C2(CC(=O)C2)C(=O)[O]1 | cell growth or viability, MTT | – | – | 5.46 µM |
| Clc1nc2cc3c(cc2cc1-c1nc2ccccc2[nH]1)OCO3 | cell growth or viability, MTT | – | 48 h | > 100 µM |
| CC(=O)OC[C@H]1O[C@@H](Oc2ccc(C#[C][Pt+])cc2)[C@H](OC(C)=O)[C@@H](OC(C)=O)[C@@H]1OC(C)=O.O=S(=O)([O-])C(F)(F)F.c1ccc(-c2cccc(-c3ccccn3)n2)nc1 | cell growth or viability | – | 72 h | 17 µM |
| Clc1ccc2[nH]c(-c3cc4cc5c(cc4nc3Cl)OCO5)nc2c1 | cell growth or viability, MTT | – | 48 h | > 100 µM |
| O=C(NCCCCCCCCNc1n[n+]([O-])c2ccccc2[n+]1[O-])C(F)(F)F | cytotoxicity, MTT | – | 24 h, normoxia 20% O2 | 91 ± 50.9 µM |
| Nc1ccccc1NC(=O)c1ccc(Nc2nccc(-c3cn(C4CCCCC4)nn3)n2)cc1 | cell growth or viability, SRB | – | 72 h | 2.69 µM |
| COc1ccc2nc(Cl)c(-c3nc4cc(Cl)ccc4[nH]3)cc2c1 | cell growth or viability, MTT | – | 48 h | 23.8 µM |
| O=C(NCCNc1n[n+]([O-])c2ccccc2[n+]1[O-])C(F)(F)F | cytotoxicity, MTT | 10% FBS medium | 6 h + 18 h, hypoxia 3% O2 | 17.2 ± 4 µM |
| CC(C)Cn1cc(-c2ccnc(Nc3ccc(OCCCCCCC(=O)NO)cc3)n2)nn1 | cell growth or viability, SRB | – | 72 h | 2.25 µM |
| CCCCCC(=O)NCCNC(=O)[C@@]1(C)[C@H](O)CC[C@@]2(C)[C@H]1CC[C@]1(C)[C@@H]2C(=O)C=C2[C@@H]3[C@@H](C)[C@H](C)CC[C@]3(C)CC[C@]21C | cell growth or viability, MTT | – | 48 h | 14.3 µM |
| CCOC12C(O)C(OC)C3(O)CC(O)(C1C3OC(=O)c1ccccc1)C13C(OC)CC(O)C4(COC)CN(C)C1C2C(OC)C43 (stereo not shown) | cell growth or viability, MTT | – | – | 19.4 µM |
| Cc1ccc2nc(Cl)c(-c3nc4ccccc4[nH]3)cc2c1 | cell growth or viability, MTT | – | 48 h | > 100 µM |
| C[C@H]1[C@H](C)CC[C@]2(C)CC[C@]3(C)C(=CC(=O)[C@@H]4[C@@]5(C)CC[C@@H](O)[C@](C)(C(=O)NCCNC(=O)C6CCCCC6)[C@@H]5CC[C@]43C)[C@H]12 | cell growth or viability, MTT | – | 48 h | 18.1 µM |
| CCC1=C(CC)C2=[N+]3C1=Cc1c(CC)c(CC)c4[n]1[Ir-3]31([c]3n(C(C)C)cc[n+]3C(C)C)([c]3n(C(C)C)cc[n+]3C(C)C)[n]3c(c(CC)c(CC)c3=CC3=[N+]1C(=C4)C(CC)=C3CC)=C2.F[P-](F)(F)(F)(F)F | cytotoxicity | – | 1 h, with: visible light 2.8 mW/cm2 | 0.006 ± 0.002 µM |
| COc1ccc2nc(Cl)c(-c3nc4cc(Br)ccc4[nH]3)cc2c1 | cell growth or viability, MTT | – | 48 h | 26.8 µM |

| Compound | assay | test system | conditions | IC50 |
| --- | --- | --- | --- | --- |
| C=C1C2C(OC(=O)c3ccccc3)C3C4N(C)C5C(O)C3(C1O)C(C2OC(C)=O)C41C(OC(C)=O)C(OC(=O)c2ccccc2)CC(C)(C=O)C51 (stereo not shown) | cell growth or viability, MTT | – | – | 26.5 µM |
| CCC1=C(CC)C2=[N+]3C1=Cc1c(CC)c(CC)c4[n]1[Ir-3]31([n+]3ccccc3)([n+]3ccccc3)[n]3c(c(CC)c(CC)c3=CC3=[N+]1C(=C4)C(CC)=C3CC)=C2.Cl | cell growth or viability | – | dark | 0.11 µM |
| CC(=O)O[C@@H]1CC[C@@]2(C)[C@@H](CC[C@]3(C)[C@@H]2C(=O)C=C2[C@@H]4[C@@H](C)[C@H](C)CC[C@]4(C)CC[C@]23C)[C@@]1(C)C(=O)NCCNC(=O)c1ccccc1 | cell growth or viability, MTT | – | 48 h | 7.78 µM |
| Nc1ccccc1NC(=O)c1ccc(Nc2nccc(-c3cn(C4CCCC4)nn3)n2)cc1 | cell growth or viability, SRB | – | 72 h | 4.1 µM |
| Cn1[c]([Ir-3]234([NH3+])[n]5c6ccc5C(c5c(F)c(F)c(F)c(F)c5F)=C5C=CC(=[N+]52)C(c2c(F)c(F)c(F)c(F)c2F)=c2ccc([n]23)=C(c2c(F)c(F)c(F)c(F)c2F)C2=[N+]4C(=C6c3c(F)c(F)c(F)c(F)c3F)C=C2)[n+](C)c2ccccc21.F[P-](F)(F)(F)(F)F | cytotoxicity | – | 1 h, with: visible light 2.8 mW/cm2 | 0.04 ± 0.003 µM |
| CN1CCN(c2ccc(Nc3nccc(-c4cn(C5CCCC5)nn4)n3)cc2)CC1 | cell growth or viability, SRB | – | 72 h | > 10 µM |
| CCCC(CCC)C(=O)NCCNC(=O)[C@@]1(C)[C@H](O)CC[C@@]2(C)[C@H]1CC[C@]1(C)[C@@H]2C(=O)C=C2[C@@H]3[C@@H](C)[C@H](C)CC[C@]3(C)CC[C@]21C | cell growth or viability, MTT | – | 48 h | > 30 µM |
| O=S(=O)([O-])[O-].[Cu+2].c1ccc(-c2nnc(-c3ccc4c(c3)OCO4)[nH]2)nc1 | cell growth or viability, MTT | – | 24 h | 8.59 µM |
| Clc1cc2nc(-c3cc4ccccc4nc3Cl)[nH]c2cc1Cl | cell growth or viability, MTT | – | 48 h | 15.1 µM |
| CC(=O)O[C@@H]1CC[C@@]2(C)[C@@H](CC[C@]3(C)[C@@H]2C(=O)C=C2[C@@H]4[C@@H](C)[C@H](C)CC[C@]4(C)CC[C@]23C)[C@@]1(C)C(=O)NCCNC(=O)CCCCCCCBr | cell growth or viability, MTT | – | 48 h | 15.8 µM |
| O=C(NCCCNc1n[n+]([O-])c2ccccc2[n+]1[O-])C(F)(F)F | cytotoxicity, MTT | – | 24 h, normoxia 20% O2 | 89.8 ± 9.8 µM |
| N#Cc1c(-c2cccs2)cc(-c2cccc3ccccc23)nc1Nc1ccc(Nc2nc(-c3cccc4ccccc34)cc(-c3cccs3)c2C#N)cc1 | cell growth or viability, MTT | – | 72 h | 0.066 µM |
| CCCC(CCC)C(=O)NCCNC(=O)[C@]1(C)[C@@H]2CC[C@]3(C)[C@H](C(=O)C=C4[C@@H]5[C@@H](C)[C@H](C)CC[C@]5(C)CC[C@]43C)[C@@]2(C)CC[C@H]1OC(C)=O | cell growth or viability, MTT | – | 48 h | > 30 µM |
| COCC12CCC(OC)C34C5CC6(O)C(OC)C(=O)C(C5C6O)C(C(OC)C13)C4N(C)C2 (stereo not shown) | cell growth or viability, MTT | – | – | 14.4 µM |
| CCCCCCC(=O)NCCNC(=O)[C@]1(C)[C@@H]2CC[C@]3(C)[C@H](C(=O)C=C4[C@@H]5[C@@H](C)[C@H](C)CC[C@]5(C)CC[C@]43C)[C@@]2(C)CC[C@H]1OC(C)=O | cell growth or viability, MTT | – | 48 h | 10.8 µM |
| N#Cc1c(-c2ccc(Cl)cc2)cc(-c2cccc3ccccc23)n2c(Cc3ccccc3)nnc12 | cell growth or viability, MTT | – | 72 h | 0.769 µM |
| COc1ccc2nc(Cl)c(-c3nc4cc(F)ccc4[nH]3)cc2c1 | cell growth or viability, MTT | – | 48 h | > 100 µM |
| C[C@H]1[C@H](C)CC[C@]2(C)CC[C@]3(C)C(=CC(=O)[C@@H]4[C@@]5(C)CC[C@@H](O)[C@](C)(C(=O)NCCNC(=O)C6CC6)[C@@H]5CC[C@]43C)[C@H]12 | cell growth or viability, MTT | – | 48 h | 28.1 µM |

For quick reference, copied from above:
| Compound | assay | test system | conditions | IC50 |
| --- | --- | --- | --- | --- |
| CC(=O)O[C@@H]1CC[C@@]2(C)[C@@H](CC[C@]3(C)[C@@H]2C(=O)C=C2[C@@H]4[C@@H](C)[C@H](C)CC[C@]4(C)CC[C@]23C)[C@@]1(C)C(=O)NCCNC(=O)CCCCCCCBr | cell growth or viability, MTT | – | 48 h | 15.8 µM |
| O=C(NCCCNc1n[n+]([O-])c2ccccc2[n+]1[O-])C(F)(F)F | cytotoxicity, MTT | – | 24 h, normoxia 20% O2 | 89.8 ± 9.8 µM |
